# Results gathered from unrelated publications.
# Each line is one published result; not all experiments were run side by side. Values joined by “and” are separate records of one study, mostly repeats; a detail may differ. ± marks the error that the study gave.
# Sequence of UniProt Q14164 (whole entry, looked up): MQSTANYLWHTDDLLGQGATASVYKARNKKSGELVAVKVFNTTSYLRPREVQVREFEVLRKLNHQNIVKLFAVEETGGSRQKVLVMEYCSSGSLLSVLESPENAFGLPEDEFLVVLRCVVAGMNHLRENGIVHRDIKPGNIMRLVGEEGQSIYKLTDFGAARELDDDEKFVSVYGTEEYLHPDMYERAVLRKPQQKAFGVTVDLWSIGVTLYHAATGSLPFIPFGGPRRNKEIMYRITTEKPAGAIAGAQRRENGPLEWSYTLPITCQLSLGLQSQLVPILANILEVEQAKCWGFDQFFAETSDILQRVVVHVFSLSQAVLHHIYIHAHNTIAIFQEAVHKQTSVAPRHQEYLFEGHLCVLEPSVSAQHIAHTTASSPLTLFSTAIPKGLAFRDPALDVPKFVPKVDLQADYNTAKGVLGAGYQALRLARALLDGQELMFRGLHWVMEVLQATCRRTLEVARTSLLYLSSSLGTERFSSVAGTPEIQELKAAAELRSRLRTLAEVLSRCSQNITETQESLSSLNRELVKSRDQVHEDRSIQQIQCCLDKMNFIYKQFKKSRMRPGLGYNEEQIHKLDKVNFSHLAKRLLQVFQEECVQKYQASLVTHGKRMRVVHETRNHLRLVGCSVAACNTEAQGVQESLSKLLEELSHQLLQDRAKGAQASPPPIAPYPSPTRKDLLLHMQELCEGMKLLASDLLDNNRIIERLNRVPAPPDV
Compound,tested on,assay,system,conditions,how to read,measurement,value
Cc1nn(-c2cccc(N)c2)c(=O)c2cnc(Nc3ccc(N4CCNCC4)cc3)nc12,"IKBKE (Homo sapiens, UniProt Q14164)",SelectScreen kinase,,,,IC50,> 10 µM
COc1cnc2cccc(N3CCc4c(cc(Cn5ccnc5)cc4-c4cn(C)nc4C(F)(F)F)C3=O)c2c1,,,"BALB/c nude mice, MV4-11 xenograft","intraperitoneal, 50 mg/kg, day 21",,tumour volume,274 mm3 and 183 mm3 and 239 mm3 and 160 mm3 and 310 mm3 and 215 mm3
NC[C@@H](C(=O)Nc1ccc(-c2cn[nH]c2)cc1)c1ccccc1,,tonometry,"NZW rabbit, magnetic bead-induced ocular hypertension","ocular, 0.03%, 6 h",,IOP,31.4 mmHg
COC1OC(C)C(OS(=O)(=O)O)C(OC2OC(C)C(OS(=O)(=O)O)C(OC3OC(C)C(OS(=O)(=O)O)C(OC4OC(C)C(OS(=O)(=O)O)C(OC5OC(C)C(OS(=O)(=O)O)C(OC6OC(C)C(OS(=O)(=O)O)C(OS(=O)(=O)O)C6OS(=O)(=O)O)C5OS(=O)(=O)O)C4OS(=O)(=O)O)C3OS(=O)(=O)O)C2OS(=O)(=O)O)C1OS(=O)(=O)O (stereo not shown),,,human plasma,32 µg/mL,,activated partial thromboplastin time,81.8 s and 78.8 s
CC(=O)[O-].O.O.O.O.[Mn+2].[O-]c1ccc(Br)cc1C=NCCN1CCOCC1,,hydroxyl radical scavenging,,120 µM,,inhibition,30.2%
Cc1ccc(N(O)/N=N/c2ccc(S(=O)(=O)Nc3nccs3)cc2)cc1,,ABTS scavenging,,180 µg/mL,,inhibition,99.7%
C=CC(=O)N1[C@H](c2ccc3c(c2)OCO3)c2[nH]c3ccccc3c2C[C@@H]1C(=O)N1CCN(C)CC1,human cyclin E1 N112C-3xFLAG:CDK2,"co-IP with TMT proteomics, refers to: DDX3X",,"concentration not given, O00571",baseline: wild type DMSO,relative co-enrichment,91%
CCCCCc1ccc(S(=O)(=O)N2CC2C(=O)OC)cc1 (stereo not shown),,,"mouse, Lewis lung carcinoma","intraperitoneal, 5 mg/kg, 16 doses, day 9",,tumour volume,139 mm3
Cc1ncsc1-c1ccc(C(C)NC(=O)C2CC(O)CN2C(=O)C(NC(=O)CCCCCCCCCCN2CCCC(Nc3ncc(Cl)c(Nc4ccccc4S(=O)(=O)C(C)C)n3)C2)C(C)(C)C)cc1 (stereo not shown),22Rv1,"RNA-seq, refers to: MYCL mRNA",,concentration not given,baseline: DMSO,log2 fold change,-2.2
CN1CCC[C@]1(C)/C=C/S(=O)(=O)NC(=O)Nc1c2c(cc3c1CCC3)CCC2,,,"human, whole blood ex vivo","100 mg twice daily, day 14, 3 h, multiple ascending dose, with: LPS and ATP",,IL-1β inhibition,99.8%
O=C(N/N=C/c1cc[n+](Cc2ccccc2)c2ccccc12)c1cccc(C(=O)N/N=C/c2cc[n+](Cc3ccccc3)c3ccccc23)c1,22CTA telomeric G4-DNA antiparallel,FRET melting,,"1 µM, K10 buffer, DNA 0.2 µM, with: ds26 10 µM",,ΔTm,10.5 ± 0.2 °C
CC(C)C[C@H](NC(=O)[C@H](Cc1ccccc1)NC(=O)[C@H](C)NC(=O)[C@@H](CS)NC(=O)CNC(=O)[C@H](N)CO)C(=O)N[C@@H](CO)C(=O)N[C@H](C(=O)N[C@@H](CCCCN)C(=O)N[C@@H](CCCCN)C(=O)N[C@@H](CCC(N)=O)C(=O)N[C@@H](Cc1ccccc1)C(=O)N[C@@H](CCC(=O)O)C(=O)N[C@@H](CCC(=O)O)C(=O)N[C@@H](CC(C)C)C(=O)N[C@H](C(=O)N[C@@H](CC(C)C)C(=O)NCC(=O)N[C@@H](CCC(=O)O)C(=O)N[C@@H](Cc1ccccc1)C(=O)N[C@@H](CC(C)C)C(=O)N[C@H](CCCCN)C(=O)N[C@H](CC(C)C)C(=O)N[C@H](CC(=O)O)C(=O)N[C@@H](CCCNC(=N)N)C(=O)N[C@H](CCCNC(=N)N)C(=O)N[C@@H](CCCNC(=N)N)C(=O)N[C@@H](CCCCN)C(=O)O)[C@@H](C)O)C(C)C,,"refers to: caspase-1, IL-1β","mouse A549 xenograft, tumour","intratumoral and intravenous, dose not given",,caspase-1 and IL-1β expression,decreased
C=CC(=O)Nc1cccc(Cn2ncc3cnc(Nc4cnn(CCOC)c4)nc32)c1,PAK3 human,"binding, KINOMEscan",,100 nM,lower = stronger binding,percent of control,95%
COC1OC(C)C(OC2OC(C)C(O)C(OC3OC(C)C(OC4OC(C)C(O)C(OC5OC(C)C(OC6OC(C)C(O)C(OC7OC(C)C(OC8OC(C)C(O)C(OC9OC(C)C(OC%10OC(C)C(O)C(OC%11OC(C)C(O)C(OS(=O)(=O)O)C%11OS(=O)(=O)O)C%10OS(=O)(=O)O)C(OS(=O)(=O)O)C9OS(=O)(=O)O)C8OS(=O)(=O)O)C(OS(=O)(=O)O)C7OS(=O)(=O)O)C6OS(=O)(=O)O)C(OS(=O)(=O)O)C5OS(=O)(=O)O)C4OS(=O)(=O)O)C(OS(=O)(=O)O)C3OS(=O)(=O)O)C2OS(=O)(=O)O)C(OS(=O)(=O)O)C1OS(=O)(=O)O (stereo not shown),,,human plasma,64 µg/mL,,activated partial thromboplastin time,92.1 s and 93.2 s and 92.9 s
Nc1ncc(-c2cc(-c3cnn(CC(F)(F)F)c3)ncc2F)nc1C(=O)NC1CNCC(F)C1 (stereo not shown),SRPK3,KINOMEscan,,1 µM,baseline: DMSO control,remaining binding,79%
Nc1nc2cc(CC[C@H]3C[C@@H](n4ccc5c(N)ncnc54)[C@H](O)[C@@H]3O)ccc2cc1Br,,,"NCI-H520 xenograft, mouse","3.0 mg/kg/day, day 27",,%ΔTGI,105%
COc1cccc(O)c1C(=O)/C=C/c1ccc2cc(N3CCCC3)ccc2c1,,immunohistochemistry,"C57BL/6J mice, cisplatin-induced kidney injury, kidney","dose not given, with: cisplatin",,γH2AX level,decreased
COCC1CN(C2CCN(c3cc(OC)c(Nc4ncc(Br)c(Nc5ccc6c(c5P(C)(C)=O)OCCO6)n4)cc3C)CC2)C1,,RECIST 1.1,advanced EGFR-mutant NSCLC patients,60 mg once daily,,disease control rate,0%
COc1cc2c(NC3CCN(C(C)C)CC3)cc(N3CCOCC3)nc2cc1OCCCN1CCCC1,,"TMT proteomics, refers to: LDHB","5xFAD mice, hippocampus","dose not given, unit not given",baseline: wild type,protein level difference,-0.0252
COC1OC(C)C(OC2OC(C)C(OS(=O)(=O)O)C(OC3OC(C)C(OC4OC(C)C(OS(=O)(=O)O)C(OC5OC(C)C(OS(=O)(=O)O)C(OS(=O)(=O)O)C5O)C4O)C(OS(=O)(=O)O)C3O)C2O)C(OS(=O)(=O)O)C1O (stereo not shown),,,human plasma,128 µg/mL,,activated partial thromboplastin time,34.3 ± 0.5 s
O=C(N/N=C/c1cc[n+](CC2CC2)c2ccccc12)c1ccc2ccc(C(=O)N/N=C/c3cc[n+](CC4CC4)c4ccccc34)nc2n1,22CTA telomeric G4-DNA antiparallel,FRET melting,,"1 µM, K10 buffer, DNA 0.2 µM, with: ds26 10 µM",,ΔTm,18.8 ± 0.3 °C
COC1OC(C)C(OC2OC(C)C(OS(=O)(=O)O)C(OC3OC(C)C(OC4OC(C)C(OS(=O)(=O)O)C(OC5OC(C)C(OS(=O)(=O)O)C(OS(=O)(=O)O)C5OS(=O)(=O)O)C4OS(=O)(=O)O)C(OS(=O)(=O)O)C3OS(=O)(=O)O)C2OS(=O)(=O)O)C(OS(=O)(=O)O)C1OS(=O)(=O)O (stereo not shown),,,human plasma,16 µg/mL,,activated partial thromboplastin time,47.5 s and 47.4 s and 47.2 s
COc1ccc(NC(=O)c2ccc3[nH]c(-c4ccc(N(C)C)cc4)nc3c2)cn1,,,"CT26, BALB/c mice, subcutaneous syngeneic graft","dose not given, day 7",,tumour volume,288 mm3 and 63.5 mm3 and 294 mm3 and 204 mm3 and 156 mm3
COC1OC(C)C(OS(=O)(=O)O)C(OC2OC(C)C(OS(=O)(=O)O)C(OC3OC(C)C(OS(=O)(=O)O)C(OC4OC(C)C(OS(=O)(=O)O)C(OC5OC(C)C(OS(=O)(=O)O)C(OC6OC(C)C(OS(=O)(=O)O)C(OC7OC(C)C(OS(=O)(=O)O)C(OC8OC(C)C(OS(=O)(=O)O)C(OS(=O)(=O)O)C8OS(=O)(=O)O)C7OS(=O)(=O)O)C6OS(=O)(=O)O)C5OS(=O)(=O)O)C4OS(=O)(=O)O)C3OS(=O)(=O)O)C2OS(=O)(=O)O)C1OS(=O)(=O)O (stereo not shown),,,human plasma,8 µg/mL,,activated partial thromboplastin time,52.5 s and 51.4 s and 52.7 s
CCCCCCCCCCCCCCCC(=O)OCC(CSC[C@H](N)C(=O)N[C@@H](CO)C(=O)N[C@@H](CCCCN)C(=O)N[C@@H](CCCCN)C(=O)N[C@@H](CCCCN)C(=O)N[C@@H](CCCCN)C(=O)NCCCCCC(=O)N[C@@H](CCCCN)C(=O)N[C@@H](CC(C)C)C(=O)N[C@H](C(=O)N[C@@H](Cc1ccccc1)C(=O)N[C@@H](Cc1ccccc1)C(=O)N[C@@H](Cc1ccc2ccccc2c1)C(=O)O)C(C)C)OC(=O)CCCCCCCCCCCCCCC (stereo partly shown),,OC antibody staining,"APP/PS1 transgenic mouse, cortex","intracortical injection, dose not given, 5 d",,OC-positive area,10.7% and 22.8% and 11% and 14.2%
COC1OC(C)C(OS(=O)(=O)O)C(OC2OC(C)C(OS(=O)(=O)O)C(OC3OC(C)C(OS(=O)(=O)O)C(OC4OC(C)C(OS(=O)(=O)O)C(OC5OC(C)C(OS(=O)(=O)O)C(OC6OC(C)C(OS(=O)(=O)O)C(OC7OC(C)C(OS(=O)(=O)O)C(OC8OC(C)C(OS(=O)(=O)O)C(OC9OC(C)C(OS(=O)(=O)O)C(OC%10OC(C)C(OS(=O)(=O)O)C(OS(=O)(=O)O)C%10OS(=O)(=O)O)C9OS(=O)(=O)O)C8OS(=O)(=O)O)C7OS(=O)(=O)O)C6OS(=O)(=O)O)C5OS(=O)(=O)O)C4OS(=O)(=O)O)C3OS(=O)(=O)O)C2OS(=O)(=O)O)C1OS(=O)(=O)O (stereo not shown),,,human plasma,64 µg/mL,,activated partial thromboplastin time,208 s and 221 s and 216 s
COC1CN([C@H]2CC[C@H]([C@@]3(C)Oc4c(Cl)cc(C(=O)NCc5c(SC)cc(C)[nH]c5=O)c(C)c4O3)CC2)C1,,"RNA-seq, refers to: EXOC6B","human, whole blood","dose not given, 24 h",baseline: pretreatment baseline,log2 fold change,1.2
COC1OC(C)C(OC2OC(C)C(OS(=O)(=O)O)C(OC3OC(C)C(OC4OC(C)C(OS(=O)(=O)O)C(OC5OC(C)C(OC6OC(C)C(OS(=O)(=O)O)C(OS(=O)(=O)O)C6O)C(OS(=O)(=O)O)C5O)C4O)C(OS(=O)(=O)O)C3O)C2O)C(OS(=O)(=O)O)C1O (stereo not shown),,,human plasma,128 µg/mL,,activated partial thromboplastin time,37.6 ± 0.4 s
COC(=O)C1CN1S(=O)(=O)c1ccc2cc(C)ccc2c1 (stereo not shown),,,"mouse, Lewis lung carcinoma","ip, 100 mg/kg, 312 h",,tumour volume,623 mm3
COC1OC(C)C(OS(=O)(=O)O)C(OC2OC(C)C(OS(=O)(=O)O)C(OC3OC(C)C(OS(=O)(=O)O)C(OC4OC(C)C(OS(=O)(=O)O)C(OC5OC(C)C(OS(=O)(=O)O)C(OC6OC(C)C(OS(=O)(=O)O)C(OC7OC(C)C(OS(=O)(=O)O)C(OS(=O)(=O)O)C7OS(=O)(=O)O)C6OS(=O)(=O)O)C5OS(=O)(=O)O)C4OS(=O)(=O)O)C3OS(=O)(=O)O)C2OS(=O)(=O)O)C1OS(=O)(=O)O (stereo not shown),,,human plasma,8 µg/mL,,activated partial thromboplastin time,35 s and 34.3 s and 35.2 s
COc1cc(O)ccc1CCC(c1ccc(O)cc1)c1cc2c(c(C)c1O)OC(c1ccc(O)cc1)CC2 (mixture of isomers),,,human blood,"1 µM, with: A23187",,TXB2 level,527 ± 128 pg/mL

# Repeated from above:
Compound,tested on,assay,system,conditions,how to read,measurement,value
O=C(N/N=C/c1cc[n+](Cc2ccccc2)c2ccccc12)c1cccc(C(=O)N/N=C/c2cc[n+](Cc3ccccc3)c3ccccc23)c1,22CTA telomeric G4-DNA antiparallel,FRET melting,,"1 µM, K10 buffer, DNA 0.2 µM, with: ds26 10 µM",,ΔTm,10.5 ± 0.2 °C
CCCCCCCCCCCCCCCC(=O)OCC(CSC[C@H](N)C(=O)N[C@@H](CO)C(=O)N[C@@H](CCCCN)C(=O)N[C@@H](CCCCN)C(=O)N[C@@H](CCCCN)C(=O)N[C@@H](CCCCN)C(=O)NCCCCCC(=O)N[C@@H](CCCCN)C(=O)N[C@@H](CC(C)C)C(=O)N[C@H](C(=O)N[C@@H](Cc1ccccc1)C(=O)N[C@@H](Cc1ccccc1)C(=O)N[C@@H](Cc1ccc2ccccc2c1)C(=O)O)C(C)C)OC(=O)CCCCCCCCCCCCCCC (stereo partly shown),,OC antibody staining,"APP/PS1 transgenic mouse, cortex","intracortical injection, dose not given, 5 d",,OC-positive area,10.7% and 22.8% and 11% and 14.2%
COC1CN([C@H]2CC[C@H]([C@@]3(C)Oc4c(Cl)cc(C(=O)NCc5c(SC)cc(C)[nH]c5=O)c(C)c4O3)CC2)C1,,"RNA-seq, refers to: EXOC6B","human, whole blood","dose not given, 24 h",baseline: pretreatment baseline,log2 fold change,1.2
COC1OC(C)C(OC2OC(C)C(OS(=O)(=O)O)C(OC3OC(C)C(OC4OC(C)C(OS(=O)(=O)O)C(OC5OC(C)C(OS(=O)(=O)O)C(OS(=O)(=O)O)C5O)C4O)C(OS(=O)(=O)O)C3O)C2O)C(OS(=O)(=O)O)C1O (stereo not shown),,,human plasma,128 µg/mL,,activated partial thromboplastin time,34.3 ± 0.5 s
